# Published values collected from several papers.
# Each numbered part is a random draw from the data of one study; scales do not carry over between parts.

# Set 1
# Target: Centromere-binding protein 1, full length, N-terminal tag (CBF1, Saccharomyces cerevisiae, UniProt P17106, residues 1-351)
# UniProt P17106, sequence (whole entry, looked up): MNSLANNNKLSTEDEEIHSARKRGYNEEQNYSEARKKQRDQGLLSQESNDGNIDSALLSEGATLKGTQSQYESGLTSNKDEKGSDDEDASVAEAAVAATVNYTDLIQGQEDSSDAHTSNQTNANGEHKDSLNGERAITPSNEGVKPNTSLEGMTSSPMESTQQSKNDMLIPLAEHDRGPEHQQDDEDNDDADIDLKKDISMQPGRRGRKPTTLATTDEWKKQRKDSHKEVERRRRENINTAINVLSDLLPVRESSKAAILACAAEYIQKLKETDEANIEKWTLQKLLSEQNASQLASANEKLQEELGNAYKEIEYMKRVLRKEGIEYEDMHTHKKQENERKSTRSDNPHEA
# Technique: protein-binding microarray
# Molecule type: double-stranded DNA, one strand shown
# Sample: in vitro
# Tested at: 0.8 µM
# Setting: whole 60-bp probe, no competitor
# Direction: higher = stronger binding
Strand,fluorescence intensity
CTAAGACCCTCCTATCACGCTCATAATATCATGTTCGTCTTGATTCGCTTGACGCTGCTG,610 a.u.
GAAGATATCGCACCGCACGTTTAGCCTGATCAATAGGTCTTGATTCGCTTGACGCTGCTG,596 a.u.
GAACGCGATGTTGCAAGCGTGACAGATCTATACTAGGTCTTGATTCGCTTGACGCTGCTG,718 a.u.
CTAGAGCGCAGTTAGTAGGTGATCGGGAAATTGTTCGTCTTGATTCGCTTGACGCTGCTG,511 a.u.
GAAGGAAATCGTGGTTCCGTCATGCCCATACTATAGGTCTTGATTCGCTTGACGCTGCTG,548 a.u.
TGTACGAAGCTATGTAATGTCACTATAGTAGTTAGGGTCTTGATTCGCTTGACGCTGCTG,547 a.u.
CTAGATTTATACCTCCTGACCAAATGGGAAAATTTCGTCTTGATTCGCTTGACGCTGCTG,917 a.u.
CCTAACTACTATAATCATGCGGAATAGCTTCGTACAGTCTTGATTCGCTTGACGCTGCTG,544 a.u.
GAATGTTTCTCGCGCCATCAGTTTTAGTGGCCGTAGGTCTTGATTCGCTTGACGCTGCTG,549 a.u.
TGTACGAAGCTATGGCGTGGGGTTATAGTAGTTAGGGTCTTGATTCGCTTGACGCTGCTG,516 a.u.
CTATACTTATGATATCACGACAGCAAATACTAATTCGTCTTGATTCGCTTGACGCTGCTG,667 a.u.
CTATCTATCAAACAACATGTGAAGATAACACAATTCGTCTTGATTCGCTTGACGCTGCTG,650 a.u.
CTAAACATCGTTAAACACGCCATATCAGACTAATTCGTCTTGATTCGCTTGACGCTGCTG,545 a.u.
CTAAAAGATAGGGCTAACATCACAAGATTCCCATTCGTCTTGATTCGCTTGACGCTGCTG,526 a.u.
TGTACGAAGCTATTATGCGTGCTTATAGTAGTTAGGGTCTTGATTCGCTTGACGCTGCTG,522 a.u.
GAAGATTCTTTATCAGCTGTTATATACCCATAGTAGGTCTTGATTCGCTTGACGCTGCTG,807 a.u.
CCTAACTACTATATTTGCGTGCTATAGCTTCGTACAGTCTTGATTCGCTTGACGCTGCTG,516 a.u.
GAATACTGTTTTCGTCACGTTCCGAACAGCAGCTAGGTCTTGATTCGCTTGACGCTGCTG,1660 a.u.
CTATTTTACGCTACGCACGTCATCGATATATACTTCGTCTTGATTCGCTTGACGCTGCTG,524 a.u.

# Set 2
# Target: Prothrombin, mature alpha-thrombin (F2, Homo sapiens, UniProt P00734)
# Technique: aptamer microarray, sandwich
# Molecule type: DNA with 2'F-ANA
# Sample: in vitro
# Tested at: 200 nM
# Setting: whole 15-mer aptamer, many near background
# With: Cy3 exosite-II aptamer, 400 nM
# Direction: higher = stronger binding
# Strand: GGTTGGTGTGGTTGG
Modification,mean fluorescence intensity [a.u.]
2'F-ANA at 2 3 4 6 7 10 12 13 15,449
2'F-ANA at 3 7 8 9 10 13 15,479
2'F-ANA at 4 5 7 8 9 11 14,46.5
2'F-ANA at 1 2 3 4 5 6 10 15,51.5
2'F-ANA at 1 2 3 7 10 13 14,52.2
2'F-ANA at 2 3 5 6 10 13,47.8
2'F-ANA at 1 6 7 8 10 11 13,52.5
2'F-ANA at 1 2 3 5 7 10 11 13 14 15,47.6
2'F-ANA at 1 3 7 11 12,470
2'F-ANA at 2 4 9 10 12 13 14 15,67.1
2'F-ANA at 2 5 6 8 9 10 11 12,51.9
2'F-ANA at 1 3 4 5 6 7 10,44.1
2'F-ANA at 1 2 5 6 7 15,58.2
2'F-ANA at 2 3 4 6 7 11 12 13 14 15,236
2'F-ANA at 1 2 3 4 5 6 7 9 11 12 14 15,51.3
2'F-ANA at 5 7 8 9 10 11 12 13 15,61.7
2'F-ANA at 1 2 4 5 9 11 13,56.8
2'F-ANA at 2 3 7 8 14 15,486
2'F-ANA at 3 11 13,986
2'F-ANA at 2 6 7 10 12 13,145
2'F-ANA at 1 6 8 10 11 12 13 15,145
2'F-ANA at 2 3 4 6 7 9 10 11,205

# Set 3
# Target: Histone acetyltransferase KAT6A, winged helix 1, GST fusion (KAT6A, Homo sapiens, UniProt Q92794, residues 1-85)
# Technique: protein binding microarray
# Molecule type: double-stranded DNA, one strand shown
# Sample: in vitro
# Tested at: not given
# Setting: 8-mer, flanks averaged, mean of 2 arrays, mostly near background
# Relative to: not given
# Direction: higher = stronger binding
# Construct (chain): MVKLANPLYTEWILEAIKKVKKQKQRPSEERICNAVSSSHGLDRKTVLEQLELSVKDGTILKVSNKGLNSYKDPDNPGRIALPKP
Strand,E-score
ACAACCTA,-0.258
GCCGCCAC,0.4
TACTCTAA,0.0178
GATTCTAA,-0.196
CGCTAAGC,0.279
CCGGGTAC,0.314
GATGAGGA,-0.193
CTCCCCTC,-0.125
AATTCGCA,0.045
GCCTGCCC,0.0715
TACCGGGA,0.28
AAGTTTGG,-0.069
AACTGTGC,-0.117
ATCCTTTC,-0.104
TCATATGA,-0.0506
CAAAGTCA,-0.123

# Set 4
# Target: Interferon regulatory factor 3, full length, phosphomimetic (IRF3, Homo sapiens, UniProt Q14653, residues 1-427, S386D/S396D/S398D/S402D/T404D/S405D)
# UniProt Q14653, sequence (whole entry, unmodified, looked up): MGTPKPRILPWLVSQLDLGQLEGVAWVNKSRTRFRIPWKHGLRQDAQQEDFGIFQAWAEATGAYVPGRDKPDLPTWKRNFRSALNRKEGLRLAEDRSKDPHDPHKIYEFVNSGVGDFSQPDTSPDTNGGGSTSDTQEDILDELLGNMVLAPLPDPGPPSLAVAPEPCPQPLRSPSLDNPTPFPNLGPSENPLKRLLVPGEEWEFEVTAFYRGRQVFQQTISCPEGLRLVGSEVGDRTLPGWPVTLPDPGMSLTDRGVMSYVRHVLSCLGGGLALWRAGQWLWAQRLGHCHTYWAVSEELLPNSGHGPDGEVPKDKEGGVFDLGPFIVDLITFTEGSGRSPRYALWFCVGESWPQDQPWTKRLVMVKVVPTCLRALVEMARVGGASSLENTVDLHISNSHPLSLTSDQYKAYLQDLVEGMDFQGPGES
# Technique: protein-binding microarray
# Molecule type: double-stranded DNA, one strand shown
# Sample: in vitro
# Tested at: 2540 nM top
# Setting: 60-bp whole probe
# With: salmon DNA 0.4 mg/ml
# Relative to: random background probes
# Direction: higher = stronger binding
# Shared flanks, not repeated: GCCTAGCAC … GTCTTGATTCGCTTGACGCTGCTG
Strand,fitted relative affinity
GACGGCTTCCTTATCCTGACGTGCTAG,0.54 z-score
TCAGTTTCCATTTTCAGACTGTGCTAG,10.4 z-score
TCTATCTGCAGACTCTCACAGTGCTAG,0.461 z-score
TCACATCTCACTCTAATACTGTGCTAG,1.22 z-score
CTAGATCTCAGTTTCGATTAGTGCTAG,3.5 z-score
TTAAGTTTCGACACTGGGTTAGTGCTA,2.84 z-score
TAAAATTTTGCTTCTAGAACGTGCTAG,0.623 z-score
GACGGTACCCTTTTCCTGACGTGCTAG,3.9 z-score
TTAGGTTCTCTTTTCCTTTAGTGCTAG,3.36 z-score
GCCATTGTGGGTCTTGCAGAGTGCTAG,-0.71 z-score
TTATATTTCAGTCTCGATTAGTGCTAG,1.88 z-score
GACGGACTGCTACTGCTGACGTGCTAG,-0.685 z-score
AATAGCTTTTCATTTTTTAACGTGCTA,1.68 z-score
GACGATTTGAGTATCGAGACGTGCTAG,0.507 z-score
ACCTATGTGTACCACTAGACGTGCTAG,0.716 z-score
GACGGACTGCTACTGCTGTCGTGCTAG,-0.559 z-score
TCATCATTGCCTATTTTACTGTGCTAG,0.467 z-score
TTAGATCACAGACTGGATTAGTGCTAG,-0.0218 z-score
TTAGGTGTCCTTATCCTTTAGTGCTAG,3.25 z-score

# Excerpt of the above (set 3):
Strand,E-score
CTCCCCTC,-0.125
AATTCGCA,0.045
GCCTGCCC,0.0715
TACCGGGA,0.28
AAGTTTGG,-0.069
AACTGTGC,-0.117
